Published values gathered from unrelated publications.
Parts stem from different laboratories: compare values within a part only.
Chain of UniProt P10721 (whole entry, unmodified, looked up): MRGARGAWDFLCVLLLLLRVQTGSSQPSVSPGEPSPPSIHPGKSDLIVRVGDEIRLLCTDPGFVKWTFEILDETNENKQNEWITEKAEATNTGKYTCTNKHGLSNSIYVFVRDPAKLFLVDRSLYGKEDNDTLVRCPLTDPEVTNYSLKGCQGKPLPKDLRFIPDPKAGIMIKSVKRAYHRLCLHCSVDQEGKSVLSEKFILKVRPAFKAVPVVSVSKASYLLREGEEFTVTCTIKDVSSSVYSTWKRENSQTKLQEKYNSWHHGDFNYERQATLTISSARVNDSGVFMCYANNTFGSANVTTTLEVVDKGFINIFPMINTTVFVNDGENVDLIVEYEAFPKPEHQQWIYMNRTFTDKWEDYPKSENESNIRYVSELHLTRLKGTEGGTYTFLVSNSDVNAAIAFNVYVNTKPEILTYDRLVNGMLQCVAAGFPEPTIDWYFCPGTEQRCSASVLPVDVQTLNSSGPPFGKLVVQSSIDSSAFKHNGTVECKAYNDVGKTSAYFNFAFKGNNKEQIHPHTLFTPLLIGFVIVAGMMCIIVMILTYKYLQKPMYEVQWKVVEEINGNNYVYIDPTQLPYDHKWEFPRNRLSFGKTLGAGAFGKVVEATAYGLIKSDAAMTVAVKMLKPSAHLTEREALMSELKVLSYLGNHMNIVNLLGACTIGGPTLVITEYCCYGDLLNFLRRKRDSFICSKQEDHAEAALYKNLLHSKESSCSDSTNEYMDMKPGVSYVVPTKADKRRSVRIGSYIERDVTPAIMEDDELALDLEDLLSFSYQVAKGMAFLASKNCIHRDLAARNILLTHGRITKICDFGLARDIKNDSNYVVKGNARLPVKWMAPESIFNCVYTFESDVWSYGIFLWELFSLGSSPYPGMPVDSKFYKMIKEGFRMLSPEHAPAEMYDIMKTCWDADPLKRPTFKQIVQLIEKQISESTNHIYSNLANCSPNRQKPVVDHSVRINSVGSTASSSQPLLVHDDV
Chain of UniProt P07947 (whole entry, looked up): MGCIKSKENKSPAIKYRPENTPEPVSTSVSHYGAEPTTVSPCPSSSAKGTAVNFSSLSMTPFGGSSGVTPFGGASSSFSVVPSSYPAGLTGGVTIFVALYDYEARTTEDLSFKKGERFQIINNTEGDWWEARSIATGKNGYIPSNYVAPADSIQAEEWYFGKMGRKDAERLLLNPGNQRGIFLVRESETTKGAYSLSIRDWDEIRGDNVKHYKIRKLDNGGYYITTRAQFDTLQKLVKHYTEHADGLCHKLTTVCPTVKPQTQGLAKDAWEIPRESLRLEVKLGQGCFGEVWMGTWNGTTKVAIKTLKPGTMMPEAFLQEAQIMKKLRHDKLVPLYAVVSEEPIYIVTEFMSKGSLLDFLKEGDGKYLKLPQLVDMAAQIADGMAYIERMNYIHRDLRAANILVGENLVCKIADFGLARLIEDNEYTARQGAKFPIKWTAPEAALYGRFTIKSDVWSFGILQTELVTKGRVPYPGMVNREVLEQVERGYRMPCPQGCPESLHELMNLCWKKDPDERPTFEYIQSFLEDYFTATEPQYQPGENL
Chain of UniProt P51813 (whole entry, looked up): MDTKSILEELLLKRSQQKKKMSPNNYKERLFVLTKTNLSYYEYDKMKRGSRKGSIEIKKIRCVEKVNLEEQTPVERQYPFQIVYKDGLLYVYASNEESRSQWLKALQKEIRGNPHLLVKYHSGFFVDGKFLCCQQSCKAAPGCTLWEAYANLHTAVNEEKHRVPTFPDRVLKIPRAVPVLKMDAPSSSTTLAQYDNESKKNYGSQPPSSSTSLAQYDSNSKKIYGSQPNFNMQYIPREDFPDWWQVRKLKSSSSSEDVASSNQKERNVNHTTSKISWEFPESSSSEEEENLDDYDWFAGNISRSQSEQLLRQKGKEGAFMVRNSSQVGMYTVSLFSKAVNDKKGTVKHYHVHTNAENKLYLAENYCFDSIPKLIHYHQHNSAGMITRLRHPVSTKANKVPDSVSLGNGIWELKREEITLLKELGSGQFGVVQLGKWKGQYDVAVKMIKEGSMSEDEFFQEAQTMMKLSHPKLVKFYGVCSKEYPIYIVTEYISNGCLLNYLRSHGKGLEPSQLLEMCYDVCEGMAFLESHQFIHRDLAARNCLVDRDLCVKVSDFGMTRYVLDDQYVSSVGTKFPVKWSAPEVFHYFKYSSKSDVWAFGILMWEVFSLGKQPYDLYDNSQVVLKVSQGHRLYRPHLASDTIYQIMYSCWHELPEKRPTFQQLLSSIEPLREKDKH
Chain of UniProt Q13188 (whole entry, looked up): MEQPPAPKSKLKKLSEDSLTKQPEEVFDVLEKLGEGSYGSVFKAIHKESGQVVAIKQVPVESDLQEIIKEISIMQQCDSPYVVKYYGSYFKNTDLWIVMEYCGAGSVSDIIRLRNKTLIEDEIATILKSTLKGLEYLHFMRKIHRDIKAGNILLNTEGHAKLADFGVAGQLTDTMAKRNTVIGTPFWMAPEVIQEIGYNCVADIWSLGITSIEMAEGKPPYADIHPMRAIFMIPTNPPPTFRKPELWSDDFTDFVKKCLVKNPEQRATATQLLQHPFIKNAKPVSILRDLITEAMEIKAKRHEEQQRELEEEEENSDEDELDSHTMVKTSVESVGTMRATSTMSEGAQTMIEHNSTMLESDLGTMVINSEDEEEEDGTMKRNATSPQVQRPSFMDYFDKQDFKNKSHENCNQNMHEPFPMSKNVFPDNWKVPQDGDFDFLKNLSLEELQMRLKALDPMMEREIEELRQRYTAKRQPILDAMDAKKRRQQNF
Chain of UniProt Q6P2M8 (whole entry, looked up): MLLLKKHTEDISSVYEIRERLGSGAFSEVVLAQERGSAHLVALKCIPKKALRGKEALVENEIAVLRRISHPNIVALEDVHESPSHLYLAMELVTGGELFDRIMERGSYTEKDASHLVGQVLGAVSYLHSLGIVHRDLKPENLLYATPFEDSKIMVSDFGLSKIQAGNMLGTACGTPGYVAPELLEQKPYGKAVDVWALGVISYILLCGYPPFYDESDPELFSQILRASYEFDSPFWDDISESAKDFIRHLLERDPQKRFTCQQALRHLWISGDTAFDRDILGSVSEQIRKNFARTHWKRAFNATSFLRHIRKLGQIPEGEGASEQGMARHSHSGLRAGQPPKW
Chain of UniProt Q00532 (whole entry, looked up): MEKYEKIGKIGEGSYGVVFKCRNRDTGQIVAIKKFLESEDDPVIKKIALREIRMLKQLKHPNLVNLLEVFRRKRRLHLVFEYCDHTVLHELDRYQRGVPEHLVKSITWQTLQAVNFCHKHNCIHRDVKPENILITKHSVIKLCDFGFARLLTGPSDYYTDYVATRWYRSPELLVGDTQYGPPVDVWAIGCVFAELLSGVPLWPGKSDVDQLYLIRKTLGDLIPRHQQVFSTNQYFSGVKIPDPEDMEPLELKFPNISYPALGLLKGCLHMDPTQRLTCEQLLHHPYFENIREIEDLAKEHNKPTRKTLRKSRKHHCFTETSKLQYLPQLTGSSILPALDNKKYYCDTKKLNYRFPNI
Chain of UniProt P51817 (whole entry, looked up): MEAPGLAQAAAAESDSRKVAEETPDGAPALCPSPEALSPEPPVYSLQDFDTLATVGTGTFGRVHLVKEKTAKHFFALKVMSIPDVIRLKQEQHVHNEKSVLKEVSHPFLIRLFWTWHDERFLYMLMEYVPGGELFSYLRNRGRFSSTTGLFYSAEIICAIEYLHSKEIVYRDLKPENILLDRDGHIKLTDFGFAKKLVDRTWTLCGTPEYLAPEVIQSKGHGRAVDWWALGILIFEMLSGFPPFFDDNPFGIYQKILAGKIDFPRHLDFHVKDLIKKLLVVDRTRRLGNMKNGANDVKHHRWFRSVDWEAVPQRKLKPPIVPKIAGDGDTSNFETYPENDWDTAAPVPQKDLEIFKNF

Block 1
SMILES: COc1cccc(CNC(=O)c2nc3scc(COCc4ccc(C(=O)O)cc4)c3c(=O)[nH]2)c1
Observed: cell-free assay
Technique: competition with immobilised ligand
Concentration: 1 µM
It gave 100% for remaining binding (STK3 (Homo sapiens, UniProt Q13188)).
For KIT (Homo sapiens, UniProt P10721): remaining binding read 93%.
The remaining binding was 100% (BRSK1 (Homo sapiens, UniProt Q8TDC3)).
For EGFR (Homo sapiens, UniProt P00533, L861Q): remaining binding read 77.8%.
The remaining binding was 89.5% (DYRK1A (Homo sapiens, UniProt Q13627)).
SBK3 (Homo sapiens, UniProt P0C264) — remaining binding: 100%.
For KIT (Homo sapiens, UniProt P10721, V559D/V654A): remaining binding read 98%.
For NEK11 (Homo sapiens, UniProt Q8NG66): remaining binding read 65.6%.
It gave 82.3% for remaining binding (Ribosomal protein S6 kinase alpha-4, C-terminal kinase domain (RPS6KA4, Homo sapiens, UniProt O75676)).
The remaining binding was 84.4% (Tyrosine-protein kinase ABL1, phosphorylated (ABL1, Homo sapiens, UniProt P00519, M351T)).
It gave 100% for remaining binding (DDR1 (Homo sapiens, UniProt Q08345)).
It gave 85% for remaining binding (Tyrosine-protein kinase ABL1, non-phosphorylated (ABL1, Homo sapiens, UniProt P00519)).
For NTRK2 (Homo sapiens, UniProt Q16620): remaining binding read 67.1%.
For STK38 (Homo sapiens, UniProt Q15208): remaining binding read 72%.
It gave 90.9% for remaining binding (EPHB1 (Homo sapiens, UniProt P54762)).
It gave 100% for remaining binding (ROCK1 (Homo sapiens, UniProt Q13464)).
For EGFR (Homo sapiens, UniProt P00533, G719S): remaining binding read 100%.
The remaining binding was 100% (PAK2 (Homo sapiens, UniProt Q13177)).
KIT (Homo sapiens, UniProt P10721, T670I/V559D) — remaining binding: 100%.
It gave 100% for remaining binding (BMX (Homo sapiens, UniProt P51813)).
CLK1 (Homo sapiens, UniProt P49759) — remaining binding: 95.6%.
For Ribosomal protein S6 kinase alpha-3, N-terminal kinase domain (RPS6KA3, Homo sapiens, UniProt P51812): remaining binding read 100%.
For PIK3CA (Homo sapiens, UniProt P42336, H1047Y): remaining binding read 100%.
The remaining binding was 100% (CDKL1 (Homo sapiens, UniProt Q00532)).
YES1 (Homo sapiens, UniProt P07947) — remaining binding: 85.2%.

Block 2
Compound: CN1CCN(C(=O)c2ccc(NC(=O)Nc3ccc(N(C)c4ccnc(Nc5ccc(CS(C)(=O)=O)cc5)n4)cc3)cc2)CC1
Concentration: 1 µM
For GAK (Homo sapiens, UniProt O14976); competitive binding panel; reference: vehicle: remaining binding read 18%.
The remaining binding was 93% (PIK3CG (Homo sapiens, UniProt P48736); competitive binding panel; reference: vehicle).
For PIP4K2C (Homo sapiens, UniProt Q8TBX8); competitive binding panel, refers to: PIP5K2C; reference: vehicle: remaining binding read 0.9%.
For SLK (Homo sapiens, UniProt Q9H2G2); competitive binding panel; reference: vehicle: remaining binding read 8.9%.
The remaining binding was 100% (CAMK2G (Homo sapiens, UniProt Q13555); competitive binding panel; reference: vehicle).
It gave 100% for remaining binding (PRKX (Homo sapiens, UniProt P51817); competitive binding panel; reference: vehicle).
The remaining binding was 7.7% (SRPK3 (Homo sapiens, UniProt Q9UPE1); competitive binding panel; reference: vehicle).
The remaining binding was 37% (RPS6KB1 (Homo sapiens, UniProt P23443); competitive binding; S6K1).
It gave 98% for remaining binding (CAMK1D (Homo sapiens, UniProt Q8IU85); competitive binding panel; reference: vehicle).
It gave 4.7% for remaining binding (JAK2 (Homo sapiens, UniProt O60674); competitive binding panel; JH1 catalytic domain; reference: vehicle).
For CDK11B (Homo sapiens, UniProt P21127); competitive binding panel, refers to: CDC2L1; reference: vehicle: remaining binding read 67%.
It gave 73% for remaining binding (SGK2 (Homo sapiens, UniProt Q9HBY8); competitive binding panel; reference: vehicle).
It gave 98% for remaining binding (MYLK4 (Homo sapiens, UniProt Q86YV6); competitive binding panel; reference: vehicle).
For DYRK1A (Homo sapiens, UniProt Q13627); competitive binding panel; reference: vehicle: remaining binding read 62%.
The remaining binding was 85% (PNCK (Homo sapiens, UniProt Q6P2M8); competitive binding; CAMK1B).
It gave 96% for remaining binding (YES1 (Homo sapiens, UniProt P07947); competitive binding; YES).

Block 3
Target: Calcium/calmodulin-dependent protein kinase type II subunit alpha (CAMK2A, Homo sapiens, UniProt Q9UQM7)
Chain of UniProt Q9UQM7 (whole entry, looked up): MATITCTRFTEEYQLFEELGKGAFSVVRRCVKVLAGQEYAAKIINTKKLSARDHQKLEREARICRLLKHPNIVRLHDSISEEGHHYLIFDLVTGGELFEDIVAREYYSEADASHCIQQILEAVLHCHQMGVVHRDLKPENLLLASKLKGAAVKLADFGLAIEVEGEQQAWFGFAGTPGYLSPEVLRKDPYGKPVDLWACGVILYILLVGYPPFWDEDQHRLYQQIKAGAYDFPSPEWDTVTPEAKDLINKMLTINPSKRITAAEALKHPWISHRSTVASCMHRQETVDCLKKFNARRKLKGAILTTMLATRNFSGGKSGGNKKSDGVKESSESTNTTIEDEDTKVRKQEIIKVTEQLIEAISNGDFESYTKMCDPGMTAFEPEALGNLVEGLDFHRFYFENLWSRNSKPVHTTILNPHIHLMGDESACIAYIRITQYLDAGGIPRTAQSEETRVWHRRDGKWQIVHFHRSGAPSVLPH
Observed: enzyme activity
Action: inhibitor
Concentration: 10 µM
The inhibition of `CCCCCCNC(=O)n1cc(F)c(=O)[nH]c1=O` is reported as 3%.
`O=C(O)CCCC(=O)C(=O)O` gave an inhibition of -13%.
For `CC(C)CC1NC(=O)C(Cc2ccc(O)cc2)NC1=O` (stereo not drawn), the inhibition was -118%.
`C=C(C)[C@H](CC=C(C)C)Cc1c(O)cc(O)c2c1O[C@H](c1ccc(O)cc1O)CC2=O` has an inhibition of 6%.
`Cc1ccn(C)n1` has an inhibition of 0%.
With `Cc1cc(=O)oc2c(O)c(O)ccc12` the inhibition was 22%.
With `O=CCc1ccccc1` the inhibition was -3%.
With `C[C@@H](N)C(=O)O` the inhibition was 21%.
`C/C1=C\C[C@]2(C(C)C)CC[C@@](C)(O2)[C@@H](O)CC/C(C)=C/CC1` has an inhibition of -20%.
`COc1cc(CN)ccc1O` gave an inhibition of 10%.
The inhibition of `CCc1ccc(O)cc1` is reported as -6%.
`O=C1CC[C@H](C(=O)O)N1` gave an inhibition of 44%.

Block 4
Target: Serine/threonine-protein kinase PLK2 (PLK2, Homo sapiens, UniProt Q9NYY3)
Chain of UniProt Q9NYY3 (whole entry, looked up): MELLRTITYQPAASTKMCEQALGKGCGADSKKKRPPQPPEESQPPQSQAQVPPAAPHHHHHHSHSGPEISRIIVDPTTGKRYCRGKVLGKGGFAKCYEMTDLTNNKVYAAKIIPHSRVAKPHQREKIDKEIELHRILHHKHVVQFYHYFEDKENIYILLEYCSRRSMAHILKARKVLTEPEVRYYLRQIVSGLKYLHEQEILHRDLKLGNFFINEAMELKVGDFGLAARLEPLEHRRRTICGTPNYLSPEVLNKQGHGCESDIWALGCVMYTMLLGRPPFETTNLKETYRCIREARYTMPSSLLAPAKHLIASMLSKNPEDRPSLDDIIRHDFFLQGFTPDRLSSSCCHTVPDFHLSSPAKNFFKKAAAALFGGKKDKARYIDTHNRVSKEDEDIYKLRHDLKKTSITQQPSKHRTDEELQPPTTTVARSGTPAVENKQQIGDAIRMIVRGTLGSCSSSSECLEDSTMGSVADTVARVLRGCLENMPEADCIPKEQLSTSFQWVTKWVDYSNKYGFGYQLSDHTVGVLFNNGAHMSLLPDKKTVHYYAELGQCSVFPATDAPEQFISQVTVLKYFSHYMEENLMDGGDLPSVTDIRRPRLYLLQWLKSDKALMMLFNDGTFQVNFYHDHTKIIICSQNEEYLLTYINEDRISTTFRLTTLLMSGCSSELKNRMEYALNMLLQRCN
Observed: enzyme activity
Action: inhibitor
Concentration: 0.5 µM
Reference: control
`CCN(CC)C(=O)c1ccc(Nc2nc(OCC3CCCCC3)c3[nH]cnc3n2)cc1` has a remaining activity of 98.2%.
The remaining activity of `O=C1c2ccccc2-c2n[nH]c3cccc1c23` is reported as 95%.
For `C[C@@H]1CCN(C(=O)CC#N)C[C@@H]1N(C)c1ncnc2[nH]ccc12`, the remaining activity was 102%.
With `c1ccc(-c2cnc(Nc3ccc(OCCN4CCCC4)cc3)s2)cc1` the remaining activity was 105%.
`Cc1cc2ncc(-c3ccccc3)nc2cc1C` gave a remaining activity of 95%.
`CCOc1nc(NC(=O)Cc2cc(OC)ccc2OC)cc(N)c1C#N` gave a remaining activity of 105%.
`O=C1C(Cl)=C(N2C(=O)CCC2=O)C(=O)c2ccccc21` gave a remaining activity of 96%.
`Cc1cn(-c2cc(NC(=O)c3ccc(C)c(Nc4nccc(-c5cccnc5)n4)c3)cc(C(F)(F)F)c2)cn1` gave a remaining activity of 107%.
`CN([C@@H](Cc1ccc(OS(=O)(=O)c2cccc3cnccc23)cc1)C(=O)N1CCN(c2ccccc2)CC1)S(=O)(=O)c1cccc2cnccc12` gave a remaining activity of 102%.
For `N#Cc1c(NC(=O)c2cccc3ccccc23)sc2c1CCCC2`, the remaining activity was 101%.
`Nc1cccc(-c2cc3c(Oc4cccc(O)c4)ncnc3[nH]2)c1` has a remaining activity of 106%.
For `O=c1cc(-c2cccc3c2Sc2ccccc2S3)oc(N2CCOCC2)c1`, the remaining activity was 84.6%.
`Ic1cccc(CSc2nnc(-c3ccncc3)o2)c1` has a remaining activity of 101%.
For `CCN(CC)CCNC(=O)c1c(C)[nH]c(/C=C2\C(=O)Nc3ccc(F)cc32)c1C`, the remaining activity was 99.2%.
With `CCN(CC)CCNC(=O)c1c(C)[nH]c(/C=C2\C(=O)Nc3ccc(Cl)cc32)c1C` the remaining activity was 91.2%.
With `COc1cc2ncnc(Nc3cccc(Cl)c3)c2cc1OC` the remaining activity was 102%.
`COc1cc2ncnc(Nc3ccc(O)c(Br)c3)c2cc1OC` has a remaining activity of 104%.
`O=C(Nc1cccc(Nc2nccc(Nc3cccc(C(F)(F)F)c3)n2)c1)C1CC1` gave a remaining activity of 99.5%.
The remaining activity of `CN(C)C[C@H]1CCn2c(c(C3=C(c4cn(C)c5ccccc45)C(=O)NC3=O)c3ccccc32)C1` is reported as 99.9%.
`COc1cc2c(cc1OC)-c1[nH]nc(Nc3cccc(F)c3)c1C2` has a remaining activity of 97.1%.
The remaining activity of `c1ccc(-c2[nH]ncc2-c2ccnc3ccccc23)nc1` is reported as 98.9%.
For `N#C/C(=C\c1ccc(O)c(O)c1)C(=O)NCc1ccccc1`, the remaining activity was 105%.
`O=C(NC(NC(=S)Nc1ccc(F)c([N+](=O)[O-])c1)C(Cl)(Cl)Cl)C(c1ccccc1)c1ccccc1` (stereo not drawn) gave a remaining activity of 92.9%.
For `Cn1nc2c3c(cccc31)C(=O)c1ccccc1-2`, the remaining activity was 93.5%.
With `Cc1nc2cc3nc(-c4cccs4)cnc3cc2n1C` the remaining activity was 99.4%.
